Measurements of several laboratories.
Numbered parts are unrelated; each lists some results of a single study. Substitutions count along the parent as printed.

Block 1
Target: Histone acetyltransferase KAT6A, winged helix 2, GST fusion (KAT6A, Homo sapiens, UniProt Q92794, residues 85-181)
Method: protein binding microarray
Molecule type: double-stranded DNA, one strand shown
Matrix: in vitro
Concentration: not given
Setting: 8-mer, flanks averaged, mean of 2 arrays, mostly near background
Reference: not given
Direction: higher = stronger binding
Residues (chain): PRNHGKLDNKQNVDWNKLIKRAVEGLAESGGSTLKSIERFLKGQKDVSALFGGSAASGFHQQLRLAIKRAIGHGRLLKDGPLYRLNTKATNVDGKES
Strand | E-score
ACTGTATG | -0.0949
AAATCTAC | 0.0357
GTAAAACA | -0.126
CCCAGACG | 0.0505
ATGCCTCC | -0.0872
ACCCAAGG | -0.0407
AGGAGCGC | 0.0733
ACAGAGTC | -0.0761
AGCGAGCT | 0.162
GTTAACTA | -0.0531
TCGTGGAA | 0.0384

Block 2
Target: Probable WRKY transcription factor 33, N-terminal DNA-binding domain (WRKY33, Arabidopsis thaliana, UniProt Q8S8P5, residues 169-264)
Method: DNA-protein interaction ELISA
Molecule type: double-stranded DNA, one strand shown
Matrix: in vitro, bacterial lysate
Concentration: not given
Setting: whole dsDNA probe, crude lysate protein
Reference: highest signal in screen
Direction: higher = stronger binding
Target sequence (chain): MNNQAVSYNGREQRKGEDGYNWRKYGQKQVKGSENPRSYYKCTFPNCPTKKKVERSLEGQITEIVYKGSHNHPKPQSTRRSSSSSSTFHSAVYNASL
Strand | relative absorbance
AAAAAACTGCTTGCCCCTGTCTCCATAAAA | 12.9 % of maximum
AAAAAAAGCTTCTATAGCTCCATGGAAAA | 21.8 % of maximum
AAAAAATTAGTCCTGATTCAATCTTCAAAA | 33.6 % of maximum
AAAAAACGTTAACACTGATTTAGGGTAAAA | 16 % of maximum
AAAAAAGGAAAACGAGTTCATCTGGTAAAA | 19.3 % of maximum
AAAAAAGGCCTTCGCTCGTGTTTACGAAAA | 23.1 % of maximum
AAAAAATTCTTACTTTTGTCTTTACTAAAA | 32.2 % of maximum
AAAAAAAAGAGCCTGGGGGTTCGCATAAAA | 19.2 % of maximum

Block 3
Target: ABI1, truncated, D143A, DHFR fusion (Arabidopsis thaliana)
Method: DHFR PCA, deep sequencing
Matrix: yeast
Setting: methotrexate growth selection, single substitutions
Added: (+)-ABA 1.4 µM
Reference: wild-type fitted maximum
Direction: higher = stronger binding
Starting sequence: PYL1, truncated, DHFR fusion (Arabidopsis thaliana); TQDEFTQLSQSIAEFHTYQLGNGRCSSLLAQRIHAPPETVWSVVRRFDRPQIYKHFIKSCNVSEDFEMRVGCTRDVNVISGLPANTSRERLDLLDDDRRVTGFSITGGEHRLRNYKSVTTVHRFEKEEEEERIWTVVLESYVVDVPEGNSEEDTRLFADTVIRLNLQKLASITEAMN
Variant | relative binding score
A13H | 45.1%
L169E | -6.84%
S87P | 13.5%
S26A | 44.7%
D96V | -2.28%
I57A | -5.85%
I33W | 16.2%

Single results of other studies
Molecule | target | test | test system | conditions | scale | measurement | value
PhoQ, residues 284 288 289 292 302 303 SVHLDV | PhoP, residues 12 14 15 18 19 LHHSG (Escherichia coli, UniProt P23836) | Sort-seq, refers to: YFP reporter | E. coli | PhoQ-PhoP variant library, added: 10 µM Mg2+ | reference: high Mg2+ state, higher = stronger signaling | fold induction | 7.03

A few entries again (block 1):
Strand | E-score
ACAGAGTC | -0.0761
AGCGAGCT | 0.162
GTTAACTA | -0.0531
TCGTGGAA | 0.0384
